Measured values gathered from unrelated publications.
Numbered parts are unrelated; each lists some results of a single study. Values joined by “and” are separate records of one study, mostly repeats; a detail may differ.
UniProt P35372, sequence (whole entry, looked up): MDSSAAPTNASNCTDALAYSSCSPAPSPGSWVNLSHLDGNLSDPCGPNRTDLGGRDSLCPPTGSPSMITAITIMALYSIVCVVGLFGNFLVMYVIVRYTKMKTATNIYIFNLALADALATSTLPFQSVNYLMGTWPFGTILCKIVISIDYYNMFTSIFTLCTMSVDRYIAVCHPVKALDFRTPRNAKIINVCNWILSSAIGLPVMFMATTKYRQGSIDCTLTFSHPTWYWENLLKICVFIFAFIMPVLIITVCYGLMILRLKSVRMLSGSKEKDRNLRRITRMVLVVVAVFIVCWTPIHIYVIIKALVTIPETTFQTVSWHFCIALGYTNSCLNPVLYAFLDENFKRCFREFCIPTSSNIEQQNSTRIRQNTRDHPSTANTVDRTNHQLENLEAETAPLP

Sample 1 — read-out: hERG current; method: manual patch clamp; measurement: mean inhibition
SMILES: Cn1cc(-c2cccc(CN3CCC4(CC3)COc3c4ccc4c3CN([C@H]3CCC(=O)NC3=O)C4=O)c2)cn1
Target: Voltage-gated inwardly rectifying potassium channel KCNH2 (KCNH2, Homo sapiens, UniProt Q12809)
UniProt Q12809, sequence (whole entry, looked up): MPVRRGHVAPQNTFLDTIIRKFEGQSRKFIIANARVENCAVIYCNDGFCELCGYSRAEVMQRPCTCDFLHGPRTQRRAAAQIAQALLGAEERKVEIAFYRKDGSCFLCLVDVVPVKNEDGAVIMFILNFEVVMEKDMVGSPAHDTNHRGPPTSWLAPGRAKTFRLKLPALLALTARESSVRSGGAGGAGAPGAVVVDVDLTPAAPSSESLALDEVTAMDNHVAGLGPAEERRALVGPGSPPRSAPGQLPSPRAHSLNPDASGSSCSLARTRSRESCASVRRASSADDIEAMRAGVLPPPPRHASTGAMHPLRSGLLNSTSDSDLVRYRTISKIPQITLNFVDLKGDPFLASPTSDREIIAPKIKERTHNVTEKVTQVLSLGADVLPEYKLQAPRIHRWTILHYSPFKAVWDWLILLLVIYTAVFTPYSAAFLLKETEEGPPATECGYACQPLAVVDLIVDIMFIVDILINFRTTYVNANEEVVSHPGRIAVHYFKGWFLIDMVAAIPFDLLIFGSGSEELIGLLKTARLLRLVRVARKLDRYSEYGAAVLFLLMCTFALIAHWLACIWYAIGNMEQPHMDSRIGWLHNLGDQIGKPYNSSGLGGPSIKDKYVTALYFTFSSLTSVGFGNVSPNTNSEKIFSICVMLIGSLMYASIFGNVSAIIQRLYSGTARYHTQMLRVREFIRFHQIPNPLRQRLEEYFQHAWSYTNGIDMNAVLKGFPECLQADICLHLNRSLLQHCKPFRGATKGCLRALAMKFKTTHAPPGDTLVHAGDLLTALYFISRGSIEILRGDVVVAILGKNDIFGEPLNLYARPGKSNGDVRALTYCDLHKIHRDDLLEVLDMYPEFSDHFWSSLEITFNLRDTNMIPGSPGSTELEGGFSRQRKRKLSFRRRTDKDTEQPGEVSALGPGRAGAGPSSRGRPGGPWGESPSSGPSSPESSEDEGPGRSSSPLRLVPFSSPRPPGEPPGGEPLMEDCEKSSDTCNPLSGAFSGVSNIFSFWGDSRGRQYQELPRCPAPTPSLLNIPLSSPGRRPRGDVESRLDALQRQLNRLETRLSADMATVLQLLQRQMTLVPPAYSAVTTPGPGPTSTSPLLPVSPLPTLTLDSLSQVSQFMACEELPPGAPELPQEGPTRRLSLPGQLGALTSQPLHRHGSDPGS
1.00 µM: 3.19%
10.00 µM: 18.9%
30.00 µM: 43.4%
3.00 µM: 7.94%

Mixed results
Cc1c(NC(=O)c2cccn(-c3ccc(F)cc3)c2=O)ccc(Oc2ccnc(NC(=O)C3CC3)c2)c1C
viability (L929; necroptosis protection, CCK-8; 2.5 µM, with: TNF-α-induced): 76.6%

CCCCC[C@@H](O)CC(=O)N[C@@H]1C(=O)N[C@H](CCCNC(=N)N)C(=O)N[C@@H](CO)C(=O)NCC(=O)N(C)[C@H](Cc2ccccc2)C(=O)N[C@@H](CC(C)C)C(=O)N[C@H](CCCNC(=N)N)C(=O)N[C@@H](CCC(=O)O)C(=O)N[C@H](CCC(N)=O)C(=O)N[C@H](Cc2c[nH]c3ccccc23)C(=O)N[C@@H]([C@@H](C)CC)C(=O)N[C@@H]([C@@H](C)O)C(=O)O[C@@H]1C
viable cells (Staphylococcus aureus; USA300; 2 x MIC, 30 min): 1700 CFU/mL and 1500 CFU/mL and 1400 CFU/mL

CC(C)(C)n1nc(-c2ccc(Cl)cc2)c2c(N)ncnc21
viability (L929; CCK-8; 12.5 µM, with: zVAD): 64.6% and 78.8% and 62.9% and 81.3% and 79.9%

N=C(N)NCCCCCCN1CCC23c4c5ccc(O)c4OC2c2nc4ccccc4cc2CC3(O)C1C5 (stereo not drawn)
normalised specific binding (OPRM1 (Homo sapiens, UniProt P35372); competitor, radioligand binding; 100 nM): 93.1% and 75.4% and 52.4%

Cc1cc(-c2cnc(N)c3c(-c4ccc5scnc5c4)csc23)n(C)n1
viability (L929; necroptosis protection, CCK-8; 15 µM, with: TNF-α-induced): 66.8%
